Measured values pooled from the literature.
Protocols differ between the studies behind these lines. Values joined by “and” are separate records of one study, mostly repeats; a detail may differ. ± marks the error that the study gave. Converted amounts (≈) assume the structure as drawn.

| SMILES | target or system | test | system | setting | how to read | measurement | result |
| --- | --- | --- | --- | --- | --- | --- | --- |
| CN1CCN(S(=O)(=O)c2ccc(-c3ccc4ncnc(Nc5ccc(Cl)cc5)c4c3)cc2)CC1 | Plasmodium falciparum | parasite growth, SYBR Green fluorescence | C235 (TM91C235), drug-resistant | – | – | EC50 | 170 nM |
| CCOC(=O)C1(Cc2ccccc2C#N)Oc2cc(F)ccc2N(Cc2ccccc2C#N)C1=O (stereo not drawn) | Arabidopsis thaliana | root length, petri dish germination | Col-0, 1/2 MS medium | 50 µg/mL, 7 days, 22 °C, dark | – | inhibition | 31.7% |
| O=S(=O)(c1ccc(-c2ccc3ncnc(Nc4ccc(OCc5cccc(F)c5)c(Cl)c4)c3c2)cc1)N1CCNCC1 | Plasmodium falciparum | parasite growth, SYBR Green fluorescence | C235 (TM91C235), drug-resistant | – | – | EC50 | 120 nM |
| CC[C@H](C)CCCCC(=O)N[C@@H](CCN)C(=O)N[C@H](C(=O)N[C@@H](CCN)C(=O)N[C@H]1CCNC(=O)[C@H]([C@@H](C)O)NC(=O)[C@H](CCN)NC(=O)[C@H](CCN)NC(=O)[C@H](CC(C)C)NC(=O)[C@@H](CC(C)C)NC(=O)[C@H](CCN)NC1=O)[C@@H](C)O | Escherichia coli | daily serial passaging | ATCC 8739 | highest sub-MIC, 33 days | baseline: initial MIC | MIC fold change | 3.32 |
| Cc1cc(-c2ccc3ncnc(Nc4ccc(OCc5cccc(F)c5)c(Cl)c4)c3c2)cnc1N1CCOCC1 | Plasmodium falciparum | parasite growth, SYBR Green | D6 | blood stage | – | EC50 | 260 nM |
| CCOC(=O)C1(Cc2ccc(F)cc2)Oc2cc(F)ccc2N(Cc2ccc(F)cc2)C1=O (stereo not drawn) | Arabidopsis thaliana | root length, petri dish germination | Col-0, 1/2 MS medium | 50 µg/mL, 7 days, 22 °C, dark | – | inhibition | 36.6% |
| O=C1NC2(CC2)COc2ncc(F)cc2[C@H]2COCCN2c2ccn3ncc1c3n2 | – | – | Sprague-Dawley rat, female, blood | oral, 5 mg/kg/day, 4 weeks, end of treatment, subacute toxicity | – | mean corpuscular haemoglobin | 20.1 ± 1 pg |
| CCOC(=O)C1(Cc2ccccc2)Oc2cc(OC)ccc2N(Cc2ccccc2)C1=O (stereo not drawn) | Arabidopsis thaliana | root length, petri dish germination | Col-0, 1/2 MS medium | 200 µg/mL, 7 days, 22 °C, dark | – | inhibition | 58.5% |
| Cc1cc(C(=O)Nc2nc3cccc(C)c3n2[C@H]2CCCCN(C(=O)/C=C/CN(C)C)C2)ccn1 | Trypanosoma brucei brucei | – | 2T1 wild type | 0.2778 µM | – | survival | 0.1% and 0.11% and -0.11% and -0.09% and -0.0154% and -0.019% |
| COc1cc(Nc2ncnc3ccc(-c4ccc(S(=O)(=O)N5CCOCC5)cc4)cc23)ccc1OCc1cccc(F)c1 | Plasmodium falciparum | parasite growth, SYBR Green fluorescence | W2, drug-resistant | – | – | EC50 | 650 nM |
| CC(=O)c1c(O)c(C)c(O)c2c1OC1=CC(=O)C(=C(C)NCCCC(=O)OC3OC4OC5(C)CCC6C(C)CCC(C3C)C46OO5)C(=O)C12C (stereo not drawn) | Plasmodium berghei | – | ANKA GFP, mouse NMRI | intraperitoneal, 4 × 50 mg/kg | – | mean survival time | > 30 days |
| COc1ccc(C2=[N+]([O-])c3ccccc3N3CCCN=C23)cc1 | Fusobacterium nucleatum | – | – | – | – | MIC90 | 2 µg/mL |
| O=S(=O)(c1ccc(-c2ccc3ncnc(Nc4ccc(O)c(Cl)c4)c3c2)cc1)N1CCOCC1 | Plasmodium falciparum | parasite growth, SYBR Green fluorescence | W2, drug-resistant | – | – | EC50 | 19000 nM |
| CN(C)c1nc(NCc2cc(Cl)c(F)cc2F)c(/N=N/c2ccc(Cl)cc2)c(N(C)C)n1 | Plutella xylostella | leaf dipping | – | 200 mg/L, 96 h | – | mortality | 46.7 ± 5.8% |
| CCCCCCCC(=O)NCCCC[C@H](NC(=O)CCCCCCC)C(=O)N[C@@H](CCCCNC(=O)CCCCCCC)C(=O)NCC(=O)NCC(=O)NCC(=O)N[C@@H](CS)C(=O)N[C@@H](CCCNC(=N)N)C(=O)N[C@@H](CCCCN)C(=O)N1CCC[C@H]1C(=O)N[C@@H](CS)C(=O)N[C@@H](CCCNC(=N)N)C(=O)N[C@@H](CCCCN)C(=O)N1CCC[C@H]1C(N)=O | Candida albicans | broth microdilution | SP 3903, RPMI-1640 | 48 h, 30 °C | – | MIC | 8 µM (≈ 14.3 µg/mL) |
| Fc1cccc(COc2ccc(Nc3ncnc4ccc(-c5ccc(N6CCCCC6)cc5)cc34)cc2Cl)c1 | Plasmodium falciparum | parasite growth, SYBR Green fluorescence | W2, drug-resistant | – | – | EC50 | 1200 nM |
| CCOC(=O)C1(Cc2ccccc2)Oc2ccccc2N(Cc2ccccc2)C1=O (stereo not drawn) | Arabidopsis thaliana | stem length, petri dish germination | Col-0, 1/2 MS medium | 50 µg/mL, 7 days, 22 °C, dark | – | inhibition | 36.8% |
| c1ccc(Nc2ncnc3ccc(-c4cccc(N5CCOCC5)c4)cc23)cc1 | Plasmodium falciparum | parasite growth, SYBR Green fluorescence | C235 (TM91C235), drug-resistant | – | – | EC50 | 4600 nM |
| CCOC(=O)C1(Cc2c(F)cccc2F)Oc2cc(F)ccc2N(Cc2c(F)cccc2F)C1=O (stereo not drawn) | Arabidopsis thaliana | stem length, petri dish germination | Col-0, 1/2 MS medium | 200 µg/mL, 7 days, 22 °C, dark | – | inhibition | 58.9% |
| CNCCO.O=C(O)C(Cl)Cl | Xanthium sibiricum | – | – | 15 mg/mL, 21 days, pre-emergence, greenhouse | – | herbicidal inhibition | 0% |
| O=S(=O)(c1cccc(-c2ccc3ncnc(Nc4ccc(OCc5cccc(F)c5)c(Cl)c4)c3c2)c1)N1CCCC1 | Plasmodium falciparum | parasite growth, SYBR Green fluorescence | W2, drug-resistant | – | – | EC50 | 480 nM |
| C#CCN1C(=O)C(CC#C)(C(=O)OCC)Oc2ccccc21 (stereo not drawn) | Arabidopsis thaliana | – | Col-0, seed germination, dark | 50 µg/mL, 7 days, 22 °C | – | root length inhibition | 100% |
| Cc1ccc(N2CC3CC(C2)N3C)cc1C(=O)NC1(c2ccc3c4c(cccc24)C(=O)N3C)CC1 | Betacoronavirus 1 | viral replication | Huh-7, OC43 | 11.72 nM | – | inhibition | 0% |
| CCOC(=O)C1(Cc2ccccc2F)Oc2cc(F)ccc2N(Cc2ccccc2F)C1=O (stereo not drawn) | Arabidopsis thaliana | stem length, petri dish germination | Col-0, 1/2 MS medium | 200 µg/mL, 7 days, 22 °C, dark | – | inhibition | 71% |
| CC(C)[C@H]1NC(=O)[C@H](Cc2ccccc2)NC(=O)[C@@H](C(C)C)NC(=O)[C@@H](C)NC(=O)[C@H](CO)NC(=O)[C@@H](Cc2c(-c3ccc(-c4ccc(-c5ccccc5)cc4)cc3)[nH]c3ccccc23)NC(=O)[C@@H](C)NC1=O | Candida albicans | broth dilution | – | – | – | MIC90 | > 50 µM |
| CN(C)S(=O)(=O)c1ccc(S(=O)(=O)N2CCC(n3c(=O)[nH]c4ccccc43)CC2)cc1 | Klebsiella pneumoniae | – | ∆mfd, mouse, intranasal infection, lung | intraperitoneal, 6 mg/kg, 24 h, nanoformulation | – | lung bacterial load | 5.53 log10 CFU/g and 5.41 log10 CFU/g and 5.58 log10 CFU/g and 5.05 log10 CFU/g and 5.52 log10 CFU/g |
| CCOC(=O)C1(Cc2ccc(C#N)cc2)Oc2cc(F)ccc2N(Cc2ccc(C#N)cc2)C1=O (stereo not drawn) | Arabidopsis thaliana | stem length, petri dish germination | Col-0, 1/2 MS medium | 200 µg/mL, 7 days, 22 °C, dark | – | inhibition | 51.5% |

For quick reference, copied from above:
| SMILES | target or system | test | system | setting | how to read | measurement | result |
| --- | --- | --- | --- | --- | --- | --- | --- |
| CCOC(=O)C1(Cc2ccc(F)cc2)Oc2cc(F)ccc2N(Cc2ccc(F)cc2)C1=O (stereo not drawn) | Arabidopsis thaliana | root length, petri dish germination | Col-0, 1/2 MS medium | 50 µg/mL, 7 days, 22 °C, dark | – | inhibition | 36.6% |
| CN(C)c1nc(NCc2cc(Cl)c(F)cc2F)c(/N=N/c2ccc(Cl)cc2)c(N(C)C)n1 | Plutella xylostella | leaf dipping | – | 200 mg/L, 96 h | – | mortality | 46.7 ± 5.8% |
